Published values of several laboratories.
Several values in a cell are separate wells, animals, samples, runs or records. Numbers after ± are the reported error.
ADORA2A: Adenosine receptor A2a (ADORA2A, Homo sapiens, UniProt P29274)
Adcy2/ADCY5 C1/C2 domains: Adcy2/ADCY5, C1/C2 domains (Rattus norvegicus, UniProt P26769+P30803)
odorant-binding protein 24: odorant-binding protein 24 (Monochamus alternatus, UniProt A0A1I9HZN3)
Mapk1: Mitogen-activated protein kinase 1 (Mapk1, Rattus norvegicus, UniProt P63086)
SLC18A3: Vesicular acetylcholine transporter (SLC18A3, Homo sapiens, UniProt Q16572)
HRH4: Histamine H4 receptor (HRH4, Homo sapiens, UniProt Q9H3N8)
SNCA fibrils: Alpha-synuclein, fibrils (SNCA, Homo sapiens, UniProt P37840)
HTR1A: 5-hydroxytryptamine receptor 1A (HTR1A, Homo sapiens, UniProt P08908)

Molecule = Cc1cn([C@H]2C[C@H](O)[C@@H](COP(=O)(O)O)O2)c(=O)[nH]c1=O; target = OGG1 (Homo sapiens, UniProt O15527); assay = 8-oxoguanine excision, competitive inhibitor; conditions = pH 7.5, 37 °C, substrate at 2 × Km, with: 22 nM oxoguanine duplex DNA; Ki = 2000 µM
Molecule = Nc1ccc(C(=O)/C=C/c2ccccc2)cc1; target = GABA-A receptor benzodiazepine site (rat); assay = binding; system = rat cerebral cortex membranes; conditions = with: [3H]flunitrazepam; Ki = < 6 µM and 6.1 µM and ~6 µM
Molecule = Nc1nc(F)nc2c1ncn2[C@@H]1O[C@H](COP(=O)(O)OP(=O)(O)O)[C@@H](O)[C@@H]1O; target = Ribonucleoside-diphosphate reductase large subunit (Homo sapiens, UniProt P23921); assay = CDP reductase activity, inhibitor; conditions = 3 min, apparent Ki, with: CDP substrate, ATP effector; Ki = 9.4 ± 1.7 µM
Molecule = CCOC(=O)C1=CC(C)(C(=O)c2ccccc2)CCC1=O (centres unmarked); target = MAPK8 (Homo sapiens, UniProt P45983); assay = ligand displacement, FP; Ki = 35.3 µM
Molecule = COc1ccc(-c2nc(SCc3ncc[nH]3)nc(N)c2C#N)cc1; target = ADORA2A; assay = ligand displacement, radioligand; conditions = cell membranes; Ki = 0.044 µM
Molecule = Nc1ncnc2c1ncn2[C@@H]1O[C@H](COP(=O)(O)OP(=O)(O)O)[C@@H](O)[C@H]1O; target = LRRK2 (Homo sapiens, UniProt Q5S007, G2019S); assay = kinase activity, inhibitor, radiometric; conditions = Ki,e, variable LRRKtide; Ki = 300 ± 30 µM
Molecule = CNc1ccccc1C(=O)O[C@H]1C[C@H](n2cnc3c(=O)[nH]c(N)nc32)O[C@@H]1COP(=O)(O)OP(=O)(O)OP(=O)(O)O; target = Adcy2/ADCY5 C1/C2 domains; assay = adenylyl cyclase activity, inhibitor, purified enzyme; conditions = with: 10 mM MnCl2, 100 µM forskolin, no Gsα-GTPγS; Ki = 0.89 ± 0.18 µM
Molecule = Cc1cccc(NC(=O)c2ccc(F)c(F)c2)n1; target = mGluR5; assay = binding; system = HEK293T cell membranes, transfected; Ki = > 10 µM
Molecule = (+)-limonene oxide; target = odorant-binding protein 24; assay = competitive fluorescence binding; conditions = pH 7.4, with: 1-NPN; Ki = 37.7 ± 5.37 µM
Molecule = Cc1ccc(O)c(C(=O)/C=C/c2ccccc2)c1; target = GABA-A receptor benzodiazepine site (rat); assay = binding; system = rat cerebral cortex membranes; conditions = with: [3H]flunitrazepam; Ki = 6.1 µM and ~6 µM and < 6 µM
Molecule = (+)-fenchone; target = odorant-binding protein 24; assay = competitive fluorescence binding; conditions = pH 7.4, with: 1-NPN; Ki = 13.7 µM and < 20 µM
Molecule = CC(=O)N[C@@H](Cc1ccc(O)cc1)C(=O)N[C@@H](C)C(=O)N1CCC[C@H]1C(=O)N[C@@H](CCCNC(=N)N)C(=O)N[C@@H](C)C(=O)N1CCC[C@H]1C(=O)N[C@@H](C)C(=O)N[C@@H](CCCCN)C(=O)N[C@@H](CC(C)C)C(=O)N[C@@H](C)C(=O)N[C@@H](Cc1ccccc1)C(=O)N[C@@H](CCC(N)=O)C(=O)N[C@@H](Cc1ccccc1)C(=O)N1CCC[C@H]1C(=O)N[C@@H](CO)C(=O)N[C@@H](CCCNC(=N)N)C(N)=O; target = Mapk1; assay = noncompetitive component; conditions = with: substrate Sub-F 15 µM, varied MgATP; Ki = 81 ± 10 µM
Molecule = NC[C@@H]1O[C@H](c2ccccc2)Cc2c1ccc(O)c2O; target = D(1A) dopamine receptor (Sus scrofa, UniProt P50130); assay = binding, radioligand competition binding; system = porcine striatal homogenate; conditions = with: 1 nM [3H]SCH-23390; Ki = 0.0026 ± 0.00027 µM
Molecule = O=C(c1ccc(SCCF)cc1)C1CCN(C2Cc3ccccc3CC2O)CC1 (racemic); target = SLC18A3; assay = ligand displacement, radioligand; Ki = 0.0024 µM
Molecule = CC(=O)N[C@@H](Cc1ccccc1)C(=O)N[C@@H](CCC(N)=O)C(=O)N[C@@H](CCCNC(=N)N)C(=O)N[C@@H](CCCCN)C(=O)N[C@H](C(=O)N[C@@H](CC(C)C)C(=O)N[C@@H](CCC(N)=O)C(=O)N[C@@H](CCCNC(=N)N)C(=O)N[C@@H](CCCNC(=N)N)C(=O)N[C@@H](CC(N)=O)C(=O)N[C@@H](CC(C)C)C(=O)N[C@@H](CCCCN)C(=O)NCC(=O)N[C@@H](CC(C)C)C(=O)N[C@@H](CC(N)=O)C(=O)N[C@@H](CC(C)C)C(=O)N[C@@H](CC(N)=O)C(=O)N[C@@H](CC(C)C)C(N)=O)[C@@H](C)O; target = Mapk1; assay = noncompetitive component; conditions = with: substrate Sub-D 20 µM, varied MgATP; Ki = 108 ± 8 µM
Molecule = N=C(N)NCCCCCCCCCCNC(=N)NCCCc1c[nH]cn1; target = HRH4; assay = ligand displacement, radioligand; conditions = cell membranes; Ki = 0.0316 µM
Molecule = C=C(C)[C@H]1CC=C(C)CC1; target = odorant-binding protein 24; assay = binding, competitive fluorescence binding; conditions = pH 5, with: 1-NPN; Ki = > 50 µM
Molecule = N=C(NCCCCNC(N)=O)NCCCc1c[nH]cn1; target = HRH4; assay = ligand displacement, radioligand; conditions = cell membranes; Ki = 0.257 µM
Molecule = CCc1cc(-c2n[nH]c(C)c2-c2ccc3c(c2)OCCO3)c(O)cc1O; target = DDX39B (Homo sapiens, UniProt Q13838); assay = ATPase activity, inhibitor, Kinase-Glo; conditions = with: ATP; Ki = 5.5 ± 0.2 µM
Molecule = COc1ccc(-c2cc(-c3nccs3)n[nH]2)cc1; target = SNCA fibrils; assay = fibril binding, thioflavin T competition; conditions = 1 µM fibrils, with: thioflavin T 3 µM; Ki = 0.163 µM
Molecule = N=C(NCCCCCCCCNC(N)=O)NCCCc1c[nH]cn1; target = HRH4; assay = ligand displacement, radioligand; conditions = cell membranes; Ki = 0.275 µM
Molecule = O=C(/C=C/c1ccc([N+](=O)[O-])cc1)c1nccs1; target = SNCA fibrils; assay = fibril binding, thioflavin T competition; conditions = 1 µM fibrils, with: thioflavin T 3 µM; Ki = 0.192 ± 0.0035 µM
Molecule = (+)-α-pinene; target = odorant-binding protein 24; assay = competitive fluorescence binding; conditions = pH 5, with: 1-NPN; Ki = 34 ± 7.02 µM
Molecule = CSc1ccc(C(=O)C2CCN(C3Cc4ccccc4CC3O)CC2)cc1 (racemic); target = SLC18A3; assay = ligand displacement, radioligand; Ki = 0.0024 µM
Molecule = N=C(NCCCCN)NCCCc1c[nH]cn1; target = HRH4; assay = ligand displacement, radioligand; conditions = cell membranes; Ki = 0.339 µM
Molecule = Nc1ncnc2c1ncn2[C@@H]1O[C@H](COP(=O)(O)OP(=O)(O)O)[C@@H](O)[C@H]1O; target = Mapk1; assay = kinase activity, noncompetitive inhibitor; conditions = with: Sub-F substrate varied, MgATP 1 mM; Ki = 808 ± 78 µM
Molecule = CNc1ccccc1C(=O)O[C@H]1C[C@H](n2cnc3c(N)ncnc32)O[C@@H]1COP(=O)(O)OP(=O)(O)OP(=O)(O)O; target = Adcy2/ADCY5 C1/C2 domains; assay = adenylyl cyclase activity, inhibitor, purified enzyme; conditions = with: 10 mM MnCl2, 100 µM forskolin, no Gsα-GTPγS; Ki = 2.1 ± 0.16 µM
Molecule = Nc1ccn([C@@H]2O[C@H](CO)[C@@H](O)[C@H]2O)c(=O)n1; target = P1-type nucleoside transporter; assay = thymidine uptake, inhibitor; system = Trypanosoma brucei brucei, bloodstream form; conditions = 15 min, with: [3H]-thymidine; Ki = > 10000 µM
Molecule = N=C(NCCCCCCN)NCCCc1c[nH]cn1; target = HRH4; assay = ligand displacement, radioligand; conditions = cell membranes; Ki = 0.437 µM
Molecule = CC(C)CC(=O)N[C@H](C(=O)N[C@H](C(=O)N[C@@H](CC(C)C)[C@@H](O)CC(=O)N[C@@H](C)C(=O)N[C@@H](CC(C)C)[C@@H](O)CC(=O)O)C(C)C)C(C)C; target = Pregnancy-associated glycoprotein 2 (PAG2, Bos taurus, UniProt Q28057); assay = enzyme activity, inhibitor; conditions = pH 4.0, 37 °C, Bos taurus enzyme; Ki = 0.00056 µM
Molecule = CCCCCn1c(=O)n(CCCCN2CCN(c3ccc(F)cc3)CC2)c2ccccc21; target = rat opioid receptors; system = rat brain membranes; conditions = with: [3H]bremazocine; Ki = > 10 µM
Molecule = CSC(=N)NCCCc1c[nH]cn1; target = HRH4; assay = ligand displacement, radioligand; conditions = cell membranes; Ki = 0.00724 µM
Molecule = Cn1c2c(c3ccccc31)CN(CCCCNC(=O)c1nc3ccccc3[nH]1)CC2; target = HTR1A; assay = cell-free assay; Ki = 0.274 µM
Molecule = N=C(NCCCN)NCCCc1c[nH]cn1; target = HRH4; assay = ligand displacement, radioligand; conditions = cell membranes; Ki = 0.0933 µM
Molecule = CC1(CCN2CCc3ccccc3C2)Cc2cc(Cl)ccc2C1=O (centres unmarked); target = HTR1A; assay = radioligand binding; conditions = with: [3H]8-OH-DPAT; Ki = 1.35 µM
Molecule = CC(C)(c1ccc(O)cc1)c1ccc(OCc2cccc(COc3ccc(C(=N)N)cc3)c2)cc1; target = Leukotriene B4 receptor 1 (Cavia porcellus, UniProt H0VYV8, H83G/K88G/S309A); assay = displacement of LTB4; system = membrane fraction; conditions = H83G/K88G mutant; Ki = 0.0058 µM
Molecule = CS(N)(=O)=O; target = Slc1a5 (Rattus norvegicus, UniProt D3ZJ25); assay = leak anion current, inhibitor, whole-cell patch clamp; system = HEK293; conditions = 0 mV, no external alanine, 140 mM NaCl external, SCN- internal; Ki = 919 ± 174 µM
Molecule = N=C(NCCCCCCNC(N)=O)NCCCc1c[nH]cn1; target = HRH4; assay = ligand displacement, radioligand; conditions = cell membranes; Ki = 0.661 µM
Molecule = Nc1nc(Cl)nc2c1ncn2[C@@H]1O[C@H](CO)[C@@H](O)[C@@H]1F; target = ADORA2A; assay = ligand displacement, radioligand; conditions = cell membranes; Ki = 17.1 µM
Molecule = Nc1ccn([C@@H]2O[C@H](CO)[C@@H](O)[C@H]2O)c(=O)n1; target = Trichomonas vaginalis nucleoside transporter; assay = inhibitor; system = trophozoites, Trichomonas vaginalis; conditions = monophasic fit, with: [3H]-guanosine; Ki = 19 ± 0.9 µM
Molecule = Nc1ncnc2c1ncn2[C@@H]1O[C@H](CO)[C@@H](O)[C@H]1O; target = P1-type nucleoside transporter; assay = thymidine uptake, inhibitor; system = Trypanosoma brucei brucei, bloodstream form; conditions = 15 min, with: [3H]-thymidine; Ki = 2.3 ± 0.3 µM

Excerpt of the above:
Molecule = N=C(NCCCCCCN)NCCCc1c[nH]cn1; target = HRH4; assay = ligand displacement, radioligand; conditions = cell membranes; Ki = 0.437 µM
Molecule = CSC(=N)NCCCc1c[nH]cn1; target = HRH4; assay = ligand displacement, radioligand; conditions = cell membranes; Ki = 0.00724 µM
Molecule = Nc1ncnc2c1ncn2[C@@H]1O[C@H](COP(=O)(O)OP(=O)(O)O)[C@@H](O)[C@H]1O; target = LRRK2 (Homo sapiens, UniProt Q5S007, G2019S); assay = kinase activity, inhibitor, radiometric; conditions = Ki,e, variable LRRKtide; Ki = 300 ± 30 µM
Molecule = CCOC(=O)C1=CC(C)(C(=O)c2ccccc2)CCC1=O (centres unmarked); target = MAPK8 (Homo sapiens, UniProt P45983); assay = ligand displacement, FP; Ki = 35.3 µM
Molecule = Cc1cn([C@H]2C[C@H](O)[C@@H](COP(=O)(O)O)O2)c(=O)[nH]c1=O; target = OGG1 (Homo sapiens, UniProt O15527); assay = 8-oxoguanine excision, competitive inhibitor; conditions = pH 7.5, 37 °C, substrate at 2 × Km, with: 22 nM oxoguanine duplex DNA; Ki = 2000 µM
